Experimental data from different studies.
Parts stem from different laboratories: compare values within a part only. Substitutions count along the parent as printed.

Sample 1 — method: protein binding microarray; form: double-stranded DNA, one strand shown; sample: in vitro; concentration: not given; baseline: not given; reading: higher = stronger binding
Target: Histone acetyltransferase KAT6A, winged helix 2, GST fusion (KAT6A, Homo sapiens, UniProt Q92794, residues 85-181)
Setting: 8-mer, flanks averaged, mean of 2 arrays, mostly near background
Residues (chain): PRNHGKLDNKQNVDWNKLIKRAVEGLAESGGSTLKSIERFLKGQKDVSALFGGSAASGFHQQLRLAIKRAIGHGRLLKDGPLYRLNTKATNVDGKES
Sequence	E-score
ACCCGTCC	-0.0537
AATTCACA	-0.0189
CTTACCCA	0.0287
TTCCAAAA	0.0891
GCCCCGCA	0.185
AGTAAACA	-0.0242
ACTACTCT	-0.148
ATCATGAA	-0.0885
AAGTAAGG	-0.0659
AACTGTTG	-0.169
CGGAAGAA	-0.0464
GCTGCTAA	0.147
ATTAGTGA	0.017
ACATAGTG	-0.171
AACCTGAG	-0.0636
GAGGAGGA	0.0279
GATCCTAC	0.0163
CAATAAGG	-0.258
CAAGACGA	-0.00175
AAGCCGTA	-0.011
CAACATAA	0.00562
AAAGTAGT	-0.174
TCAGGAAA	0.0311
AAAACGAC	0.0542
CGGCGGTC	0.0635

Sample 2 — method: protein-binding microarray; form: double-stranded DNA, one strand shown; sample: in vitro; concentration: 250 nM; setting: 60-bp whole probe; added: salmon DNA 0.4 mg/ml; baseline: random background probes; reading: higher = stronger binding; shared flanks, not repeated: GCCTAGCAC … GTCTTGATTCGCTTGACGCTGCTG
Target: Interferon regulatory factor 7, full length, phosphomimetic (IRF7, Homo sapiens, UniProt Q92985, residues 1-503, S101K/S471D/S472D/S475D/S476D/S477D/S483D/S484D/S487D)
Target sequence (chain): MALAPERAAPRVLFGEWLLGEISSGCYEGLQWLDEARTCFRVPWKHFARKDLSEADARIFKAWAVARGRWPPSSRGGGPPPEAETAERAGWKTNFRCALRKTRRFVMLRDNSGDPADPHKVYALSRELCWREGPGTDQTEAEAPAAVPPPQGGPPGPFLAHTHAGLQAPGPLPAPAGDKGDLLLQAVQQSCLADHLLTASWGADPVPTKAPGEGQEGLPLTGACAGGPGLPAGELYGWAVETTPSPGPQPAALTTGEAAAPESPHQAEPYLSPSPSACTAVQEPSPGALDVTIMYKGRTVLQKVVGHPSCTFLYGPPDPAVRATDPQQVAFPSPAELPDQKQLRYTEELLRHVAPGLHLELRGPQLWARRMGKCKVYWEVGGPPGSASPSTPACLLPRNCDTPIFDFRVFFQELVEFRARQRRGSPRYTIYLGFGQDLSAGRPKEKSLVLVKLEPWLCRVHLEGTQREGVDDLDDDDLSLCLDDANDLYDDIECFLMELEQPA
Sequence	log fluorescence [z-score]
GACGATATCGGGACTGGATACGTGCTA	0.0804
TTAGGTTTCCCTCTCCTTTAGTGCTAG	1.54
TGCTTCCTCTTTTTTGTTCCGTGCTAG	1.85
TTAGAACTGGTGTTTCGATTAGTGCTA	4.52
GGGAATTTAGAAAATGGAAATGTGCTA	-0.119
GACGGTATCCTTACCCTGACGTGCTAG	-0.241
TTCGGTATCCTACTGCTTTAGTGCTAG	0.155
TTAGGTTTCGTGTATCGGTTAGTGCTA	5.59
TTAGAACTGAGTCTCGATTAGTGCTAG	1.28
TTAGGTTTCGGGACAGGGTTAGTGCTA	4.83
GACGGTCTCGGTCTCGGGATGTGCTAG	1.26
CACTCTTTCCTCACCATACTGTGCTAG	2.19
CACGTTGCTCAAGGGCTTGAGTGCTAG	0.928
GACGAACTGAGGATCGAGACGTGCTAG	-0.231
ATAATTTTTCTAGTGGTTGCGTGCTAG	0.702
GACGGTCTCGGCCTCGGGACGTGCTAG	-0.196
TTCGATTTCGGGACTGGATTAGTGCTA	0.845
GACGGTATCCTTCTCCTGACGTGCTAG	-0.0331
GACGGTTTCGACACTGGCGACGTGCTA	3.75
TTAGAACTGGGGACTGGCTTAGTGCTA	-0.322
ACCATTGTGGTTTTCATTATGTGCTAG	-0.146

Sample 3 — method: DHFR PCA, deep sequencing; sample: yeast; added: (+)-ABA 0 µM; baseline: wild-type fitted maximum; reading: higher = stronger binding
Target: ABI1, truncated, D143A, DHFR fusion (Arabidopsis thaliana)
Setting: methotrexate growth selection, single substitutions
Starting sequence: PYL1, truncated, DHFR fusion (Arabidopsis thaliana); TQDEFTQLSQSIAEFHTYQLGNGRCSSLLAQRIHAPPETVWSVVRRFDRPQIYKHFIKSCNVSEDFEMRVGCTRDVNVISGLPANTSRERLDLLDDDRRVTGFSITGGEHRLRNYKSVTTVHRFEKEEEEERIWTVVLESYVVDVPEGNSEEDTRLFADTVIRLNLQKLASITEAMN; partner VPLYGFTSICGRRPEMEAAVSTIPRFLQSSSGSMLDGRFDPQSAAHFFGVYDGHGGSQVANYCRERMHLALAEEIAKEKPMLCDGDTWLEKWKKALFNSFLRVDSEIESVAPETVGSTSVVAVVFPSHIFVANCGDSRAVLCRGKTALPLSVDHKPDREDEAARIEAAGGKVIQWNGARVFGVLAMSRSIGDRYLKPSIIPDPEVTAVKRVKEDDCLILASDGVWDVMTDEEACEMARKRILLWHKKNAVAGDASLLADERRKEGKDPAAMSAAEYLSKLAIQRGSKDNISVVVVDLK
Variant	relative binding score
E38G	0.537%
V143F	-7.53%
K126F	10.5%
L29P	2%
S11C	25.4%
H110N	49.1%
R98Q	5.37%
K126L	19.6%
N61H	45.7%
Y53E	0.259%
A158I	30.8%
S140H	10.3%
R98D	-7.46%
F66V	12.7%
V43T	1.79%
I133G	39.1%
R98S	-1.99%
I162M	7.57%
R113H	9.67%
T135W	-12.7%
N61F	21.5%
T39I	49.6%
F47A	1.84%
T120F	-10.6%
M68H	3.36%

Sample 4 — target: CCNA1, cyclin fold, Cln2 fusion (human); method: yeast growth competition, sequencing; sample: yeast; setting: weak parent motif; baseline: not given; reading: higher = stronger binding
Starting sequence: FZR1 docking peptide (human); QDYERRLLRQIVI
Variant	normalised enrichment score
R5K	0.169
Q10A	0.224
R5A	0.399
Q1A	0.371
E4A	-0.0605
Y3A	0.0924
R5A L7A	0.289
R9A	0.21
I11A	0.591
R5K L8F	0.449

Sample 5 — target: CREB3, bZIP domain (human); method: DHFR protein complementation; sample: yeast; baseline: wild-type JUN-FOS pair; reading: higher = stronger binding
Setting: single substitutions, most at no-binding floor
Starting sequence: JUN, bZIP domain (human); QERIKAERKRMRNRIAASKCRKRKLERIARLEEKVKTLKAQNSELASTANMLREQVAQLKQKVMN; partner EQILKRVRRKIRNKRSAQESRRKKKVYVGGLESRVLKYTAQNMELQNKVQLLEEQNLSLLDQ
Variant	binding fitness
S43G	-1.4 natural log
K39L	-1.53 natural log
A49M	-1.43 natural log
E44D	-1.35 natural log
Q55V	-1.43 natural log
A29N	-1.42 natural log
R53W	-1.44 natural log
I28D	-1.34 natural log
S47E	-1.29 natural log
T48V	-1.42 natural log
A40M	-1.52 natural log
Q41N	-1.31 natural log
L38A	-1.57 natural log
M51R	-1.32 natural log
I28H	-1.52 natural log
M51V	-1.38 natural log
S43R	-1.39 natural log
A40W	-1.42 natural log
L45Q	-1.51 natural log
E44K	-1.42 natural log
R30W	-1.45 natural log
L31E	-1.31 natural log
L52E	-1.5 natural log
Q41V	-1.5 natural log
A49G	-1.43 natural log

Sample 6 — method: universal PBM; form: double-stranded DNA, one strand shown; sample: in vitro; concentration: 600 nM; reading: higher = stronger binding
Target: Sal-like protein 4, full length isoform A (SALL4, Homo sapiens, UniProt Q9UJQ4, residues 1-1053)
Sequence of UniProt Q9UJQ4 (whole entry, looked up): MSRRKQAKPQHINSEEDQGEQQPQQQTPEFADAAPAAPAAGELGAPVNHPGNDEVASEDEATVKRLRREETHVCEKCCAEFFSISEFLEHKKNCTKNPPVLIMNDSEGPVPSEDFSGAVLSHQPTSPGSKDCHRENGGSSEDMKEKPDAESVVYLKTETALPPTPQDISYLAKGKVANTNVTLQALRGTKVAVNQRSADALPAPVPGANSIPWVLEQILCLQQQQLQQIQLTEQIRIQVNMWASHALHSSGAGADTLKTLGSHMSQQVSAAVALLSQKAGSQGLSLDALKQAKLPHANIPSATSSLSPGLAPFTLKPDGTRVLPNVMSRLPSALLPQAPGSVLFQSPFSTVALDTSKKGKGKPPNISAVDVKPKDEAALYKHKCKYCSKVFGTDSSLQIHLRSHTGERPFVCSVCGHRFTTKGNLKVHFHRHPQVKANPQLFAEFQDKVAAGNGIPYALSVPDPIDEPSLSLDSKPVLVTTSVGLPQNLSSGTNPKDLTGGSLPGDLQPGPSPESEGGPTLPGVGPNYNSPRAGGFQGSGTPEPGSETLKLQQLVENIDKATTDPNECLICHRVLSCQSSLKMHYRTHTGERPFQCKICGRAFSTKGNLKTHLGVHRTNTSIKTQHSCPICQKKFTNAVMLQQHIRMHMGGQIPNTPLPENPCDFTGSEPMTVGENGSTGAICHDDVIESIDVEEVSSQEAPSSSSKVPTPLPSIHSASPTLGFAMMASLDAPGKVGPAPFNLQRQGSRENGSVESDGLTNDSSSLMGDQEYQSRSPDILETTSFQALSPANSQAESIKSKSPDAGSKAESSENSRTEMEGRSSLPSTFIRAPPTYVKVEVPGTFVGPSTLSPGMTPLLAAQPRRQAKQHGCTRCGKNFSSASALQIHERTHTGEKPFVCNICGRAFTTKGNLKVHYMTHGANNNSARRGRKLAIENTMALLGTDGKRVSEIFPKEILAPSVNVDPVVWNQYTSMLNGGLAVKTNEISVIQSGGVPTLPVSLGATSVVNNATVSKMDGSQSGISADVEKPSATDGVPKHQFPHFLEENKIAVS
Setting: 8-mer, flanks averaged, mean of replicates
Sequence	E-score
CATGTGGC	-0.0039
ATAGGTCG	-0.0667
AGAGATTA	0.0982
ACCAGGTC	-0.153
ATGTCTTA	0.158
TACTACTA	0.264
CAATCTAA	0.093
ACCCCAAT	-0.0379
CCCTCCCA	-0.178
GGAGATCA	-0.0685
AAACCCTG	0.0496
ACGTGGCA	-0.214
CACATGGA	-0.0525
CAGACGAA	0.0801
ATGTAGAA	0.172
AGGTCGCA	-0.0307
GGACCGGA	-0.41
AGTCGGCA	-0.134

Excerpt of the above (sample 6):
Sequence	E-score
CAGACGAA	0.0801
ACGTGGCA	-0.214
AGTCGGCA	-0.134
AAACCCTG	0.0496
ACCCCAAT	-0.0379
AGAGATTA	0.0982
CATGTGGC	-0.0039
ATGTAGAA	0.172
CAATCTAA	0.093
CACATGGA	-0.0525
GGAGATCA	-0.0685
CCCTCCCA	-0.178
